# Measured values collected from several papers.
# Parts stem from different laboratories: compare values within a part only. Changes are numbered by the printed parent chain.

# Series 1 — technique: RNA Bind-n-Seq; form: RNA; medium: in vitro; tested at: 365 nM; baseline: no-protein control; direction: higher = stronger binding
# Target: RNA binding protein fox-1 homolog 2, RRM domain, GST-SBP tag (RBFOX2, Homo sapiens, UniProt O43251-10, residues 100-194)
# Setting: natural RNA segment, single round, ends assumed
# All sequences stand within: GGGAGUUCUACAGUCCGACGAUC … UGGAAUUCUCGGGUGCCAA
# Target sequence (chain): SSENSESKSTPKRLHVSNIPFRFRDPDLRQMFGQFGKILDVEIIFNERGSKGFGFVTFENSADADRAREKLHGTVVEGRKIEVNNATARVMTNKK
Strand,RBNS enrichment (R)
GCCCUCCUUCUUUAUUUUUUUCCCAUUGCAUUCUGGGAGUCCACAUCUGGCUUUCUCAGCCACUGUUCAUCACCAGGGGUUUUAGGAGGAAGGCUUGGCUCCUGUCUUCC,1.11
UUAAAAGAAAACUAUUUUGAUGAAUAUAUUUAAAAAACCUUUUUUUAUUGUGGAGCAUAGGAAUUGCCCCCCUCCAGGCUUCACCCUCCCUGCCUAAGCAGGGUGGGGGC,0.327
GAAGCUCUGAGAGACCAAAUAACAUGCCCAAAAUGAAGAGUGAGGAGCUGGAGUAGUUAGGGUUGACUUUGGUGGCAGCCCACCUUUCCUAACACACAUUCAGAGAAAGG,0.438
UCACCAACCCCAGCUGGGACCACAGGAUGUUGAGCUGUCUUCCCCAGGCCCAGCAGCCAUGCCCCGCCAAGAAGCAUGCUGGGAGUAAGGUCUUUGCCAUCAAGGGUAUU,0.356
GGUUUUUUGAGGCUUUUGACACAGUUAUUAGUUAAAUCAAAUGUUCAAAAAUACGGAGCAGUGCCUAGUAUCUGGAGAGCAGCACUACCAUUUAUUCUUUCAUUUAUAGU,0.386
UGCACCGGUGAAACUCAGGCCACACUCAAGGGCUGACUGUCCAGGCGCUCCCUUCAGCCGCCUCGUCGUCAGCGUUCUUAGUCAUGCAUUAUUCGUGUUAGCUGAAAUGC,0.384
CUAAUGGUUAAGACACCAGUAACAAAAACACAUGAUUUGGAAAUACUUUGGCUUUUUCAUAUACCUAGUGGUGCCUUAUCAUAAUAGCACUGUUACAUGAAAUAAGCCCC,0.444
UUUUAAUGUGGUGCACACUAUAGCCUCACAAACCUGUUAUUCCAGUGUAAUCUGCAGUGUCGUAACUAAAGUUACUGGCUUGGUCUUAUUUGCACAGUUUUUGCGUCUUG,0.311

# Series 2 — technique: protein-binding microarray; form: double-stranded DNA, one strand shown; medium: in vitro; tested at: 940 nM top; setting: 60-bp whole probe; with: salmon DNA 0.4 mg/ml; baseline: random background probes; direction: higher = stronger binding; all sequences stand within: GCCTAGCAC … GTCTTGATTCGCTTGACGCTGCTG
# Target: Interferon regulatory factor 5, full length, phosphomimetic (IRF5, Homo sapiens, UniProt Q13568-2, residues 1-514, S451D/S453D/S456D/S462D)
Strand,fitted relative affinity [z-score]
AGAGAATGTGGAGAAATAGGGTGCTAG,-0.0475
GACGGTATCGACATTCGGGACGTGCTA,3.46
TCCAGTCTGGGAGATGAAGCGGTGCTA,-0.652
TAGAGGGAGTAAAGGAAAGAGTGCTAG,-0.41
AGCAGTTTCTCAACCACTTTGTGCTAG,1.42
TTAGGTATCGGGAATGGGTTAGTGCTA,4.42
TTAGAATTGGGGTTTCGATTAGTGCTA,5.83
TTAGGTATCGGGACTGGTTTAGTGCTA,4.74
GACGGTATCGTGTATCGGGACGTGCTA,1.92
GAGCAGAGGCTGATGTATGTGTGCTAG,-0.7
TTAAATTTCAGTATCGATTAGTGCTAG,6.66
TTAGGACTAGACTATCGGTTAGTGCTA,-0.401
GACGGACTGCGTCTCCTGACGTGCTAG,-0.422
TTAGGTTTCGACACGGGGTTAGTGCTA,8.98
TTCGAACTGGGGTTTCGATTAGTGCTA,5.65
TTAGGTCTCGGTTTGGGTTAGTGCTAG,5.57
TTAGGACTGCTATTCCTTTAGTGCTAG,-0.405
TTAGGTATTCTTCTCCTTTAGTGCTAG,0.88
ATAGATTTCAGTATCGATTAGTGCTAG,5.87

# Series 3 — technique: protein binding microarray; form: double-stranded DNA, one strand shown; medium: in vitro; tested at: not given; baseline: not given; direction: higher = stronger binding
# Target: Histone acetyltransferase KAT6A, winged helix 2, GST fusion (KAT6A, Homo sapiens, UniProt Q92794, residues 85-181)
# Setting: 8-mer, flanks averaged, mean of 2 arrays, mostly near background
# Construct (chain): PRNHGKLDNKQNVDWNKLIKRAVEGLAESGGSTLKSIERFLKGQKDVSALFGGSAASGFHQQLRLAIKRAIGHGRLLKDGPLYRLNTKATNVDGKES
Strand,E-score
ATGTGCGC,0.0488
CCTTTACA,-0.0807
GCAGTTCC,0.0367
AAGGTGGG,0.108
CTGAACGA,-0.127
GGTGTGCA,-0.112
ACCGCTCT,-0.0372
ACGAAGCA,0.0657
CATCTGTA,-0.131
CTCATCGA,-0.062
AGCGGTGC,0.115
GCTGCACC,0.0596
GCAGGTCC,0.118
AGGTTGTA,-0.0859
TAATCCCA,-0.147
AGACTAAG,-0.0506

# Series 4 — technique: DHFR PCA, deep sequencing; medium: yeast; with: (+)-ABA 58 µM; baseline: wild-type fitted maximum; direction: higher = stronger binding
# Target: ABI1, truncated, D143A, DHFR fusion (Arabidopsis thaliana)
# Setting: methotrexate growth selection, single substitutions
# Parent: PYL1, truncated, DHFR fusion (Arabidopsis thaliana); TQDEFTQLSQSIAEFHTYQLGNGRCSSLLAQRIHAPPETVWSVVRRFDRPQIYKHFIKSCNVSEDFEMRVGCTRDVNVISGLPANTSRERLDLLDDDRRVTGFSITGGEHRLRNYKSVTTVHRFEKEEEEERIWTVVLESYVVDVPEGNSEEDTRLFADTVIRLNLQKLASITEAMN; partner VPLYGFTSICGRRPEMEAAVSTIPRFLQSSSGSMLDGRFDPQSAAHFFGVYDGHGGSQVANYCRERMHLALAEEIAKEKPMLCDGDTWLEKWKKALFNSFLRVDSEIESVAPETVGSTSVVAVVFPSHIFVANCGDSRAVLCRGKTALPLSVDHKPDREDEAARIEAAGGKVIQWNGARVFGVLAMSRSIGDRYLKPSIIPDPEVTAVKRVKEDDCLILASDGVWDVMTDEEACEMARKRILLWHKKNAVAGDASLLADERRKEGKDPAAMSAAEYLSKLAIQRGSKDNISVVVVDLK
Change,relative binding score
V40I,54.6%
S140D,-11.7%
I172M,74.9%
E127K,97.2%
T73F,87.6%
V136P,5.79%
L166F,26.9%
R155Q,75.4%
S27C,39.4%
T106C,85.6%
V43W,7.31%
A170K,91.5%
D92S,34.5%
T17P,16.1%
Y18H,91.4%
R155T,82.5%
H122M,19.5%
K168I,58.8%
K54D,-9.01%
V76Y,54.3%

# Series 5 — technique: universal PBM; form: double-stranded DNA, one strand shown; medium: in vitro; tested at: not given; direction: higher = stronger binding
# Target: Sal-like protein 4, full length isoform B (SALL4, Homo sapiens, UniProt Q9UJQ4-2, residues 1-616)
# Setting: 8-mer, flanks averaged, mean of replicates
# Construct (chain): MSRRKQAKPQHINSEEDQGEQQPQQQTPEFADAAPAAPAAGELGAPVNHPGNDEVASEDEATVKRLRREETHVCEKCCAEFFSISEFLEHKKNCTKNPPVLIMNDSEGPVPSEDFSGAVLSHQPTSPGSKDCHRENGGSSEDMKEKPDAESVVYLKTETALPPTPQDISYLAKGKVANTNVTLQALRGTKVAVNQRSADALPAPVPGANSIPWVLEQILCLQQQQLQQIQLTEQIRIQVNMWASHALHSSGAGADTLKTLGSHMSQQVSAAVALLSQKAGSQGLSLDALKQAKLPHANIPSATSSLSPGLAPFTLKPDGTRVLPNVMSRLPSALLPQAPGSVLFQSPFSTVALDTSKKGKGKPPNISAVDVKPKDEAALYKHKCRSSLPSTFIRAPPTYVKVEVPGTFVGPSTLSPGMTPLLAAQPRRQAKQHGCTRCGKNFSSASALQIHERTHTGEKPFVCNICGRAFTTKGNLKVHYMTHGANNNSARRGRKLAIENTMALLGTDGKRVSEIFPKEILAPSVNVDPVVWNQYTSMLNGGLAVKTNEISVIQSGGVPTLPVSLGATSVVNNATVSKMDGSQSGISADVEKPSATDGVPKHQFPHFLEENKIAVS
Strand,E-score
ACTGGCTG,-0.273
GGTACGCA,0.0148
CAGTTATG,0.27
TGGAAACA,-0.00557
TCGTCAGA,-0.0693
GCGGCAAA,-0.168
ATTCATGA,0.222
CAGTGGCA,-0.0833
ACTGCCCC,-0.157
GGACACTA,-0.133
GATGCATA,0.12
CCTTTATC,0.131
CCCCTGTA,-0.0453
GTGACGGA,-0.121
TTAGCCAA,-0.00967
GGCACTGA,-0.104
GACCACTA,-0.0261
AAAGGGCC,-0.237
GCGATGAC,-0.165

# Repeated from above (series 5):
Strand,E-score
ACTGCCCC,-0.157
AAAGGGCC,-0.237
CCTTTATC,0.131
CAGTTATG,0.27
TTAGCCAA,-0.00967
TCGTCAGA,-0.0693
GACCACTA,-0.0261
ATTCATGA,0.222
GTGACGGA,-0.121
